Measured values collected from several papers.
Protocols differ between the studies behind these lines. Values joined by “and” are separate records of one study, mostly repeats; a detail may differ. Numbers after ± are the reported error. Values after ≈ are worked out from the molar mass of the structure shown.
CYP1A2: Cytochrome P450 1A2 (CYP1A2, Homo sapiens, UniProt P05177)

Sequences of proteins named here, by UniProt entry; tags and fusion partners are left off. Residues count along the entry.
UniProt P05177, whole entry: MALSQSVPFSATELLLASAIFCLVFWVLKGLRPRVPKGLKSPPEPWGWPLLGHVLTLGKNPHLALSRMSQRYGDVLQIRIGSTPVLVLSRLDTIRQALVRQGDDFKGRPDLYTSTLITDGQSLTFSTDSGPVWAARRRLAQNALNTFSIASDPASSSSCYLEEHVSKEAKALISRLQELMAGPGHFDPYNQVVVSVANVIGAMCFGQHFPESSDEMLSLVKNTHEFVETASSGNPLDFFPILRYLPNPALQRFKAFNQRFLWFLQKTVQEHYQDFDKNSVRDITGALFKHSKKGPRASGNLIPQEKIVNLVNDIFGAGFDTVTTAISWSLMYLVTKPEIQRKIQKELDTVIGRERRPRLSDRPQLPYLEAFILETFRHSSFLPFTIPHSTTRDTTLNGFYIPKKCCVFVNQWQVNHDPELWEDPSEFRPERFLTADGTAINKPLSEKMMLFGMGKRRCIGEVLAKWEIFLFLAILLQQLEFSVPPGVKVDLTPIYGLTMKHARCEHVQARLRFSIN
UniProt P10635, whole entry: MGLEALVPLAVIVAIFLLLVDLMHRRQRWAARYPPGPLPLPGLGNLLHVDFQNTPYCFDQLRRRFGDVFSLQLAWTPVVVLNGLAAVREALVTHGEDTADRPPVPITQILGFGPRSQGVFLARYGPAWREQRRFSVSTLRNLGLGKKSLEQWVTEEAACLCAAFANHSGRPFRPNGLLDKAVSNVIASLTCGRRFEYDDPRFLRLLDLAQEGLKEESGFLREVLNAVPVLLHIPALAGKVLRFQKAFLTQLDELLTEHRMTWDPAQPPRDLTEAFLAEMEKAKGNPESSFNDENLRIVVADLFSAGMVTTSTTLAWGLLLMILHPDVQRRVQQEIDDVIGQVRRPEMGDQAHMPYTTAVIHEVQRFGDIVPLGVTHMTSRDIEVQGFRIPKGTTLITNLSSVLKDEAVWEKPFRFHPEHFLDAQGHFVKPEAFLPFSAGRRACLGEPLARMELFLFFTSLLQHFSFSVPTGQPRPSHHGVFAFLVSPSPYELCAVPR
UniProt P35353, 24-415 limits assumed: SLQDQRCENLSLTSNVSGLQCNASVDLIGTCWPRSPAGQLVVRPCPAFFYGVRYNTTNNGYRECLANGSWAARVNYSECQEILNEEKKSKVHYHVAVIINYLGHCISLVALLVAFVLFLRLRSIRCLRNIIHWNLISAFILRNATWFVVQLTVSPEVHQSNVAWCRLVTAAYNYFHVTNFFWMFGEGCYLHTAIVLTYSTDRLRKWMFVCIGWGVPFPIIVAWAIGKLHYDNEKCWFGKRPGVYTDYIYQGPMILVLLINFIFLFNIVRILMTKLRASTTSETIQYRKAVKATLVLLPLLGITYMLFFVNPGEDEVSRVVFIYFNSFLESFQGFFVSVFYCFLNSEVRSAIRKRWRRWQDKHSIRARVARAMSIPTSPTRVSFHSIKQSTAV

The kinetic solubility of `O=C(NCCNCCO)c1cc2c([nH]c3ccccc32)c(-c2ccc(Cl)c(Cl)c2)n1` is reported as 99.9 µM (≈ 44.3 µg/mL) (pH 7.4).
With `Cc1ccc(OCCN(C)C)cc1C(=O)N[C@H](C)c1cc(-c2ccn(C)n2)nc2ccccc12` the viability was 0.6% and 1.8% (Vero E6 cells; 250 µM).
For `O=C(NC1CCN(c2ncnc3[nH]cnc23)CC1)c1cccc(NS(=O)(=O)c2ccc(Cl)cc2)c1`, the viability was 100% (A549-ACE2; 0.01016 µM).
The solubility of `COc1cccc(-c2cc(Nc3c(Nc4ccc(C(F)(F)F)cc4)c(=O)c3=O)ccc2OC)c1` is reported as 1.5 ± 0.1 µM (water).
For `Cc1ccc2nc(-c3ccc4nc(-c5ccc(NC(=O)c6cccc(Cl)c6)cc5)sc4c3)sc2c1S(=O)(=O)O`, the solubility was 0.12 µg/mL (PBS; pH 7.4).
With `O=C(NC1CCN(c2ncnc3[nH]cnc23)CC1)c1cccc(NS(=O)(=O)c2ccc([N+](=O)[O-])cc2)c1` the viability was 89.9% (A549-ACE2; 200 µM).
`COc1ccc(NC(=O)CN2CCCN(S(=O)(=O)c3ccc(C)cc3)CC2)c(OC)c1` gave an IC50 of 16.3 µM (CYP1A2; enzyme inhibition, inhibitor).
`CN(C(=O)Cc1ccc(Cl)cc1Cl)[C@@H]1CCCC[C@H]1N1CCCC1` has an intrinsic clearance of 4.6 mL/min/g (mouse liver microsomes; 0.5 µM, added: NADPH).
The partition coefficient of `NCCNCCSc1ccccc1` is reported as 0.25 ± 0.01 (n-octanol/phosphate buffer; pH 7.4, average of 10, 25, 50 µg/mL).
The MIC of `CCc1nc(N)nc(N)c1C#CCc1cc(-c2ccncc2)ccc1OC` is reported as 1.25 µg/mL (≈ 3.48 µM) (Klebsiella pneumoniae; Alamar Blue broth; ATCC 10031).
For `O=C(N[C@@H]1CC[C@@]2(O)[C@H]3Cc4ccc(O)c5c4[C@@]2(CCN3CC2CC2)[C@H]1O5)c1ccncc1F`, the efflux ratio was 7 ± 0.5 (Caco-2; 20 µM, 2 h, pH 7.4, 37 °C, without elacridar; relative to: B-A over A-B).
`CC1(C)CC[C@]2(C(=O)O)CC[C@]3(C)C(=CC[C@@H]4[C@@]5(C)CC[C@H](OC(=O)NCc6ccccc6)C(C)(C)[C@@H]5CC[C@]43C)[C@@H]2C1` has an AUC(0-inf) of 64.2 µM·h (C57BL/6 mice, plasma; intraperitoneal, 85 µmol/kg).
`COc1cccc2c(N3CCC(CCP(=O)(O)O)CC3)ncnc12`: “lowest trough concentration” 40 nM (mouse, serum; subcutaneous, 300 mg/kg daily, 24 h after dose, dosed for 6 days).
`O=C(NC1CCN(c2ncnc3[nH]cnc23)CC1)c1cccc(S(=O)(=O)Nc2ccc(Cl)cc2)c1` gave a viability of 103% (A549-ACE2; 0.03048 µM).
For `CC(C)(C)N1CCC(NC(=O)c2ccc(C(F)(F)F)cc2Cl)CC1`, the remaining compound was 90.1% (mouse plasma; 2 µM, 60 min).
With `Cc1ccc(S(=O)(=O)Nc2cccc(C(=O)NC3CCN(c4ncnc5[nH]cnc45)CC3)c2)cc1Cl` the viability was 103% (A549-ACE2; 0.2743 µM).
With `COc1ccc(S(=O)(=O)N2CCCN(CC(=O)Nc3ccccc3OC)CC2)cc1` the IC50 was > 20 µM (Cytochrome P450 2D6 (CYP2D6, Homo sapiens, UniProt P10635); enzyme activity, inhibitor).
`O=C(NC1CCCCC1)Oc1ccc(O)c(-c2ccccc2)c1` gave an AUC of 30300 ± 4370 a.u. (mouse, brain; intraperitoneal, 1 mg/kg, 2 h time course).
For `CC(C)c1ccc(NC(=O)C2CC3CCC2C3)cc1` (stereo not shown), the IC50 was 12.2 µM (CYP1A2; enzyme activity, inhibitor).
`C1c2c(-c3nnn[nH]3)n[nH]c2[C@@H]2C[C@H]12` (relative stereo) — result for mechanical threshold: “no effect” (von Frey; wild-type mouse; subcutaneous, 10 mg/kg).
`CC[C@H](C)[C@@H]1NC(=O)[C@@H]2CSSC[C@H](NC(=O)[C@H](CCCNC(=N)N)NC(=O)[C@@H]3CSSC[C@H](NC1=O)C(=O)N[C@@H]([C@@H](C)O)C(=O)N[C@@H](CCCNC(=N)N)C(=O)NCC(=O)N[C@@H](Cc1ccccc1)C(=O)N3)C(=O)N[C@@H](CC(C)C)C(=O)N[C@H]1CSSC[C@H](NC(=O)[C@H](C(C)C)NC(=O)CNC(=O)[C@H](CCCNC(=N)N)NC(=O)[C@H](CCCNC(=N)N)NC1=O)C(=O)N[C@@H](CCCNC(=N)N)C(=O)N2`: “highest non-toxic concentration” > 100 µM (HeLa; MTT; 48 h, 37 °C, 10% FBS).
`[11CH3]Nc1ccc(C(=O)C2CCN(C3Cc4ccccc4CC3O)CC2)cc1` (single isomer, unassigned) gave a radioactivity uptake of 3.45 %ID/g (Sprague-Dawley rat, liver; intravenous, dose not given, 5 min).
The intrinsic clearance of `[2H]c1c([2H])c(S(=O)(=O)N2CCC([2H])(C(=O)Nc3ccc4cc(C(=O)O)ccc4c3)CC2)c(C([2H])([2H])[2H])c([2H])c1C([2H])([2H])[2H]` is reported as < 23.1 µL/min/mg (rat liver microsomes).
For `Nc1nc(SCC(=O)NCCN2CCCCC2)nc2sc3c(c12)CCC(c1ccccc1)C3` (stereo not shown), the metabolized compound was 58 ± 4% (mouse liver microsomes; 30 min).
With `COc1ccc(S(=O)(=O)Nc2cccc(C(=O)NC3CCN(c4ncnc5[nH]cnc45)CC3)c2)cc1` the viability was 92.5% (A549-ACE2; 66.67 µM).
The concentration of `COCCN(CCOC)c1nc(C)nc2c(-c3c(OC)cc([76Br])cc3OC)c(C)nn12` is reported as 0.23 nM (Corticotropin-releasing factor receptor 1 (Rattus norvegicus, UniProt P35353); rat, frontal cortex; intravenous, 60 min).
`CC(C)C[C@@H](NC(=O)[C@H](NC(=O)[C@H]1CCCN1)[C@H](C)O)C(=O)N[C@H](Cc1c[nH]cn1)C(=O)N[C@@H](C(=O)N[C@H](Cc1c[nH]cn1)C(=O)N[C@H](CC(N)=O)C(=O)N[C@H](CCCNC(=N)N)C(=O)N[C@H](CCCNC(=N)N)C(=O)N[C@H](CCCNC(=N)N)C(=O)N[C@H](CCCNC(=N)N)C(=O)N[C@H](CCCNC(=N)N)C(N)=O)[C@H](C)O`: “incidence of abnormal EEG” 50% (adverse events, phase I single ascending dose; healthy male subjects; 36 mg, grade 1).
For `CCCCCCCCCC(=O)c1cc[nH]c1`, “maximum non-toxic concentration” read ≤ 25 µM (Vibrio cholerae; bacterial growth, OD600).

Repeated from above:
With `O=C(NC1CCN(c2ncnc3[nH]cnc23)CC1)c1cccc(NS(=O)(=O)c2ccc([N+](=O)[O-])cc2)c1` the viability was 89.9% (A549-ACE2; 200 µM).
`COc1ccc(NC(=O)CN2CCCN(S(=O)(=O)c3ccc(C)cc3)CC2)c(OC)c1` gave an IC50 of 16.3 µM (CYP1A2; enzyme inhibition, inhibitor).
